Experimental data of several laboratories.
Each line is one published result; not all experiments were run side by side. ± gives the spread as reported.

For CN(C)C(=O)c1cccc(N2Cc3cn(Cc4cccc(F)c4)nc3C2)c1, the IC50 was 47 nM (HEK293 expressing GluA1 and GluA2; glutamate excitotoxic cell death, CellTox Green; added: glutamate).
Nc1nnc(-c2ccccc2O)cc1N1CC2CCC(C1)N2c1ccnc(C#CCCN2CCCCCC2)c1 gave an IC50 of 26.1 nM (NCI-H1944; cell growth or viability, ATP luminescence; 7 days).
With Fc1ccc(Cn2ncc3c2CN(c2nccc(N4CCCC4)n2)C3)cc1 the IC50 was 496 nM (HEK293 expressing GluA1 and GluA2; glutamate excitotoxic cell death, CellTox Green; added: glutamate).
CCn1nc(Cl)c2c1-c1cnc(N)c(c1)O[C@H](C)c1cc(F)ccc1-c1nn(C)cc1C2 gave an IC50 of 0.625 nM (Ba/F3 EML4-ALK variant 1 E1210K; cell viability).
CNS(=O)(=O)Nc1nccc(Cc2c(C)c3ccc(Oc4ncccc4F)cc3oc2=O)c1F gave an IC50 of > 1000 nM (MJ (G11); cell viability, CellTiter-Glo; 7 days).
For NC(=O)c1ccc(-c2ccccc2Cl)c2c3c([nH]c12)CC[C@@H](N)C3, the IC50 was 15.6 nM (SGC-7901; cell growth or viability).
CC(=O)OC[C@H]1O[C@@H](Oc2ccc(C#[C][Pt+])cc2)[C@H](OC(C)=O)[C@@H](OC(C)=O)[C@@H]1OC(C)=O.O=S(=O)([O-])C(F)(F)F.c1ccc(-c2cccc(-c3ccccn3)n2)nc1 has an IC50 of > 100000 nM (CCD 19Lu; cell growth or viability; 48 h).
For CCN(C(=O)c1cc(F)ccc1Oc1nncnc1N1CCC2(C1)CN(C(CCCN(C)CCOC)C(C)C)C2)C(C)C (stereo not drawn), the IC50 was 1630 ± 128 nM (MV4-11; QuantiGene, measured: FLT3 mRNA).
Cn1ncc(-c2ccc3c(=O)[nH]nc(CN)c3c2)c1-c1c(F)c(Cl)cc(OC2CC2)c1C#N has an IC50 of 470 nM (AGS; cell viability, inhibitor, CellTiter-Glo; 120 h, baseline-subtracted).
C/C(=N\NC(N)=S)c1c(O)c2ccccc2oc1=O has an IC50 of > 100000 nM (human Skin fibroblast; cell growth or viability, MTT; 48 h).
COc1cc(-c2cc(C(C)=O)n3ccccc23)c(OC)cc1CN1CC(O)C1 gave an IC50 of 4300 nM (MV4-11; cell growth or viability, ATP luminescence).
The IC50 of CC(CCC(=O)OCc1cccc(CN(C(=O)OCc2ccc(B3OC(C)(C)C(C)(C)O3)cc2)[c-]2cccc2)c1)C1CCC2C3CCC4CC(O)CCC4(C)C3CC(O)C12C.[Fe+2].c1cc[cH-]c1 (stereo not drawn) is reported as 14000 nM (BL2; cell growth or viability, MTT; 48 h).
COc1cc(C(=O)N/N=C/c2cccc3ccccc23)cc(OC)c1OC has an IC50 of 85.8 nM (N6/ADR, multidrug resistant; MTT; 48 h).
CO[C@@H](C[C@H]1C(C)=CC[C@@H]2[C@]3(C)C[C@H](O[C@@H]4O[C@@H](C)[C@H](OC(=O)c5cccc(O)c5)[C@@H](O)[C@H]4O)[C@@H](O)C(C)(C)[C@H]3CC[C@]21C)[C@H](N)C(=O)O gave an IC50 of 6060 nM (THP-29; cell viability, CCK-8; 72 h).
With CC(C)c1ccc(N(C)c2ccc3c(c2)OCC[C@H]3CNc2cnccc2C(=O)O)cc1 the IC50 was 4.4 nM (HCC95; cell growth or viability, ATP luminescence; 7 days).
For CN(C)C(=O)c1ccnc(N2Cc3cn(Cc4cccc(C(F)(F)F)c4)nc3C2)n1, the IC50 was 56 nM (HEK293 expressing GluA1 and GluA2; glutamate excitotoxic cell death, CellTox Green; added: glutamate).
C=CC(=O)N1CCCC(n2c(=O)c3ncccc3n(Cc3ccc(Oc4ccccc4)cc3)c2=O)C1 (stereo not drawn) has an IC50 of 2000 nM (DOHH-2; cell growth or viability, MTT; 72 h).
Cc1ccc(Cn2cc3c(n2)CN(c2cccc(C(=O)N(C)C)c2)C3)cc1 gave an IC50 of 656 nM (HEK293 expressing GluA1 and GluA2; glutamate excitotoxic cell death, CellTox Green; added: glutamate).
For COc1cc(-c2cc(C(C)=O)n3ccccc23)c(OC)cc1C(=O)N1CCOCC1, the IC50 was 3900 nM (MV4-11; cell growth or viability, ATP luminescence).
With CCOC(=O)/C=C1\S/C(=N\N=C\c2cccc3cc4ccccc4nc23)N(c2cccc(OC)c2)C1=O the IC50 was > 50000 nM (SK-BR-3; cell growth or viability, MTT; 48 h).
The IC50 of N#Cc1cccc(N2Cc3cn(Cc4ccc(F)cc4)nc3C2)c1 is reported as 35 nM (HEK293 expressing GluA1 and GluA2; glutamate excitotoxic cell death, CellTox Green; added: glutamate).
With O=C(Nc1cc(OCCN2CCCC2)c2ccccc2n1)c1cccc(C(=O)Nc2cc(OCCN3CCCC3)c3ccccc3n2)n1 the IC50 was 600 nM (HT-1080; cell growth or viability, ATP luminescence; 72 h).
O=C(NCc1cc(F)cc(F)c1)[C@@]1(O)CCN(c2ccc3[nH]ccc3c2)C1=O has an IC50 of > 10000 nM (OVXF1353 ovarian tumour; colony formation, soft agar clonogenic).
With N#Cc1cccc(N2Cc3cnn(Cc4ccc(F)cc4)c3C2)c1 the IC50 was 291 nM (HEK293 expressing GluA1 and GluA2; glutamate excitotoxic cell death, CellTox Green; added: glutamate).
CC(C)=CC1OC(C)(C)C2C=C3C(=O)C(Cl)=CC(O)C3C3C(O)C4OC4C(=O)C132 (stereo not drawn) gave an IC50 of 9690 nM (MDA-MB-435S; cell growth or viability, MTS).
With CN(C)C(=O)c1cccc(N2Cc3cn(Cc4cc(Cl)cc(Cl)c4)nc3C2)c1 the IC50 was 55 nM (HEK293 expressing GluA1 and GluA2; glutamate excitotoxic cell death, CellTox Green; added: glutamate).
For Cc1ccc(C(C)C)cc1.Cc1ccc(C(C)C)cc1.Cc1ccc(C(C)C)cc1.Cc1ccc(C(C)C)cc1.O=S(=O)(O)C(F)(F)F.O=S(=O)(O)C(F)(F)F.O=S(=O)(O)C(F)(F)F.O=S(=O)(O)C(F)(F)F.c1ccc2c3c4ccccc4c(c2c1)-c1cn(nn1)-c1cc[n+](cc1)[Ru-]1[O]c2c4ccccc4c4c5c(c6ccccc6c(c25)=[O+]1)=[O+][Ru-]([O]4)[n+]1ccc(cc1)-n1cc(nn1)-c1c2ccccc2c(c2ccccc12)-c1cn(nn1)-c1cc[n+](cc1)[Ru-]1[O]c2c4ccccc4c4c5c(c6ccccc6c(c25)=[O+]1)=[O+][Ru-]([O]4)[n+]1ccc(cc1)-n1cc-3nn1, the IC50 was 17200 ± 1100 nM (AGS; cell growth, MTT; 24 h, 20 µM preincubated in medium 48 h at 37 °C).
O=c1cc(-c2ccccc2)oc2cc(O)c(O)c([O][Ga+][O]c3c(O)c(O)cc4oc(-c5ccccc5)cc(=O)c34)c12 gave an IC50 of > 200000 nM (LO2; cell viability, MTT).
CN(C)C(=O)c1cncc(N2Cc3cn(Cc4cccc(F)c4)nc3C2)n1 gave an IC50 of > 5000 nM (HEK293 expressing GluA1 and GluA2; glutamate excitotoxic cell death, CellTox Green; added: glutamate).
The IC50 of Cc1ccc([N+](=O)[O-])cc1S(=O)(=O)N(C)/N=C/c1cnc2ccc(Br)cn12 is reported as 94 nM (HOP-92; cell growth or viability).
CCOC(=O)/C=C1\S/C(=N\N=C\c2cccc3cc4ccccc4nc23)N(CC(C)C)C1=O has an IC50 of > 50000 nM (SK-BR-3; cell growth or viability, MTT; 48 h).
The IC50 of NCCOc1cc(NC(=O)c2cc(OCc3cn(Cc4ccc(C(=O)O)cc4)nn3)cc(C(=O)Nc3cc(OCCN)c4ccccc4n3)n2)nc2ccccc12 is reported as > 40000 nM (HT-1080; cell growth or viability, ATP luminescence; 72 h).
With COc1cc(-c2cn(C)c(=O)c3cnccc23)c(OC)cc1Cn1ccnc1 the IC50 was 4600 nM (MV4-11; cell growth or viability, ATP luminescence).
With CN1CCC(N[C@H]2CCc3[nH]c4c(C(N)=O)ccc(-c5ccccc5Cl)c4c3C2)CC1 the IC50 was 997 nM (SGC-7901; cell growth or viability).
The IC50 of c1ccc2c(-c3cn(-c4ccncc4)nn3)c3ccccc3c(-c3cn(-c4ccncc4)nn3)c2c1 is reported as > 20000 nM (AGS; cell growth or viability, MTT; 24 h).
For CCOc1cncc(-c2ccc(NC(=O)C3(c4ccnc(NS(=O)(=O)C5CC5)n4)CCOCC3)nc2)n1, the IC50 was 53 nM (MSTO-211H; cell proliferation, CellTiter-Glo; 72 h, Mesothelioma cancer).
